Measurements of several laboratories.
Protocols differ between the studies behind these lines. Numbers after ± are the reported error.
UCHL1: Ubiquitin carboxyl-terminal hydrolase isozyme L1 (UCHL1, Homo sapiens, UniProt P09936)
Sequence of UniProt P09936 (whole entry, looked up): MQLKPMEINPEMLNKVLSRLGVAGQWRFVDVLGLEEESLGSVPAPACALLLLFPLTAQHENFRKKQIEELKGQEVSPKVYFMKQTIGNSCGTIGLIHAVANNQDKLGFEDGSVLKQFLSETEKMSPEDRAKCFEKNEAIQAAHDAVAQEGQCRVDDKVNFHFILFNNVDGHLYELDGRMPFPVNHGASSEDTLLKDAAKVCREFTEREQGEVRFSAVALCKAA
SIRT2: NAD-dependent protein deacetylase sirtuin-2 (SIRT2, Homo sapiens, UniProt Q8IXJ6)
Sequence of UniProt Q8IXJ6 (whole entry, looked up): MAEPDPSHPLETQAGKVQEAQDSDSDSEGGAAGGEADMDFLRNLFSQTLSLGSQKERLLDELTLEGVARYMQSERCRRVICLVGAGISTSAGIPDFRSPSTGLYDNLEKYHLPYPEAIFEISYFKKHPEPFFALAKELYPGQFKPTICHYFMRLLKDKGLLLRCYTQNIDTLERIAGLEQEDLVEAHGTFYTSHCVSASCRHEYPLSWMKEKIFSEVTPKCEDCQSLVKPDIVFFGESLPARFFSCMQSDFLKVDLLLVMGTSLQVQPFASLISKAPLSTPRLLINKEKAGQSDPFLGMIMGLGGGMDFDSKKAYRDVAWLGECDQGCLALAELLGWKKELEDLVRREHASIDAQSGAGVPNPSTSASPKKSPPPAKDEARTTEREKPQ
serine/threonine phosphatase Stp1: serine/threonine phosphatase Stp1 (Staphylococcus aureus, UniProt A0A0H2XF73)
Histone acetyltransferase RTT109 with Vps75: Histone acetyltransferase RTT109, with Vps75 (Saccharomyces cerevisiae, UniProt Q07794)
Sequence of UniProt Q07794 (whole entry, looked up): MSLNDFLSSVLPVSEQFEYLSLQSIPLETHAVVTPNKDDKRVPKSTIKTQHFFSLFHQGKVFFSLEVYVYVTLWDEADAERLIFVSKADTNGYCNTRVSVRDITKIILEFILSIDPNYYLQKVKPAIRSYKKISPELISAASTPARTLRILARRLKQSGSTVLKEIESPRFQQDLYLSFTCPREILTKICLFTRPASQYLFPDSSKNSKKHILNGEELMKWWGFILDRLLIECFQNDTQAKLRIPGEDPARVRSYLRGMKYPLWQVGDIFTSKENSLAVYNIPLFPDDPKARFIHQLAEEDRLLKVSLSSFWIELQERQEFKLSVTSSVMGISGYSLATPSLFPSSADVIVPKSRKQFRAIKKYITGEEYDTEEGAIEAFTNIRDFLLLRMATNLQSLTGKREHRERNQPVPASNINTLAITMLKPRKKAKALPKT
BRD4 BD2: Bromodomain-containing protein 4, BD2 (BRD4, Homo sapiens, UniProt O60885)
Faah: Fatty-acid amide hydrolase 1 (Faah, Rattus norvegicus, UniProt P97612)
Sequence of UniProt P97612 (whole entry, looked up): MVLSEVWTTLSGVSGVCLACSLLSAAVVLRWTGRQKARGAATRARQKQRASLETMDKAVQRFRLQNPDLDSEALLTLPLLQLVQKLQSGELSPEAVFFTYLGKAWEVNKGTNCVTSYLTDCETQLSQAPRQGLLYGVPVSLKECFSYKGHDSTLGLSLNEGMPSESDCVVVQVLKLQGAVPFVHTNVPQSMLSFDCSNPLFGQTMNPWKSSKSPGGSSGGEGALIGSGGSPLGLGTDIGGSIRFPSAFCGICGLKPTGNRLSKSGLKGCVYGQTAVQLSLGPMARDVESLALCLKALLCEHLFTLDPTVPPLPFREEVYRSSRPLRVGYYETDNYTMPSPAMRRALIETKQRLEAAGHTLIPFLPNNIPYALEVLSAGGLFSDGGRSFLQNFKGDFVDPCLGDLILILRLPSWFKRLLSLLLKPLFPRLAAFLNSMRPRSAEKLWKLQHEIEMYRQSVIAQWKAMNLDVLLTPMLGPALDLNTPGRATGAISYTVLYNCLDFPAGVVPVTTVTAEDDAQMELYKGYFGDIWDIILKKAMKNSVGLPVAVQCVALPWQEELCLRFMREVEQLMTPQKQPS
Sequence of UniProt Q06187 (whole entry, unmodified, looked up): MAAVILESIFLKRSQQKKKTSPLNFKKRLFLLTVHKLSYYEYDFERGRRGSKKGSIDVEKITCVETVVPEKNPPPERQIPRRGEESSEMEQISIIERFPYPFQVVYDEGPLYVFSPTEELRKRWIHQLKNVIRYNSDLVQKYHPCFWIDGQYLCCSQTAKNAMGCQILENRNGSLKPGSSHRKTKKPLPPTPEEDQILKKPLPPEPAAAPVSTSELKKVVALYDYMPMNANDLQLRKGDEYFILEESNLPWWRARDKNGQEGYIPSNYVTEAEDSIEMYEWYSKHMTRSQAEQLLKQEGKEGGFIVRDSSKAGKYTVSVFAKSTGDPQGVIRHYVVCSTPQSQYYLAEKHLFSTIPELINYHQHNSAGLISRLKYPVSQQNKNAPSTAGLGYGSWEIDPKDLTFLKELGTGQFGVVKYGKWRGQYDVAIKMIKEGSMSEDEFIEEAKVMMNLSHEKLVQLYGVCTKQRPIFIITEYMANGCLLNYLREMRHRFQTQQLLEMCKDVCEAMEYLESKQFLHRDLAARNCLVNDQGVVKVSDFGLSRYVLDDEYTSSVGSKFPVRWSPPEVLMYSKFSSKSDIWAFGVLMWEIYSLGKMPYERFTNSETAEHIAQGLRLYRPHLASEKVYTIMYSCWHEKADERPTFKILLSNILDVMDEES
Sequence of UniProt P35222 (whole entry, looked up): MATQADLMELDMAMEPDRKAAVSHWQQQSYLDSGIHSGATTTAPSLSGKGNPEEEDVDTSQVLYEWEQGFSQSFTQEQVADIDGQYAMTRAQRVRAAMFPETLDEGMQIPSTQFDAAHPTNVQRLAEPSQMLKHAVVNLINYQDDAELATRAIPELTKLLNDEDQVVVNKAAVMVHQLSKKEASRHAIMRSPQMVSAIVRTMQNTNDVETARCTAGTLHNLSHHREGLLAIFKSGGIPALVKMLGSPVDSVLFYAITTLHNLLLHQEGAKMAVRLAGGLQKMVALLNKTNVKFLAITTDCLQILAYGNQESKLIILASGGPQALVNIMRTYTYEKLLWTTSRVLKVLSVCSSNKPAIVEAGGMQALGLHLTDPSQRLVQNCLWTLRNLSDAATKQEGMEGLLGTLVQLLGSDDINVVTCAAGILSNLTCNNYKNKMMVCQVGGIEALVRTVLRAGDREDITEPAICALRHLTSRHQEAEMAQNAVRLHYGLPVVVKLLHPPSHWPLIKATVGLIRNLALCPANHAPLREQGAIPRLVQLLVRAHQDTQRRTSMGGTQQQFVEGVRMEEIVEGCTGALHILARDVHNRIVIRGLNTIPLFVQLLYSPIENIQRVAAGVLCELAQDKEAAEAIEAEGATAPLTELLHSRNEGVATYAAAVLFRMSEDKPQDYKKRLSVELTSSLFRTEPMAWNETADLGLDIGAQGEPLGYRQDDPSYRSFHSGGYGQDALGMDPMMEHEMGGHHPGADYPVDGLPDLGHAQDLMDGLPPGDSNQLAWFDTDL
Sequence of UniProt Q9SCZ4 (whole entry, unmodified, looked up): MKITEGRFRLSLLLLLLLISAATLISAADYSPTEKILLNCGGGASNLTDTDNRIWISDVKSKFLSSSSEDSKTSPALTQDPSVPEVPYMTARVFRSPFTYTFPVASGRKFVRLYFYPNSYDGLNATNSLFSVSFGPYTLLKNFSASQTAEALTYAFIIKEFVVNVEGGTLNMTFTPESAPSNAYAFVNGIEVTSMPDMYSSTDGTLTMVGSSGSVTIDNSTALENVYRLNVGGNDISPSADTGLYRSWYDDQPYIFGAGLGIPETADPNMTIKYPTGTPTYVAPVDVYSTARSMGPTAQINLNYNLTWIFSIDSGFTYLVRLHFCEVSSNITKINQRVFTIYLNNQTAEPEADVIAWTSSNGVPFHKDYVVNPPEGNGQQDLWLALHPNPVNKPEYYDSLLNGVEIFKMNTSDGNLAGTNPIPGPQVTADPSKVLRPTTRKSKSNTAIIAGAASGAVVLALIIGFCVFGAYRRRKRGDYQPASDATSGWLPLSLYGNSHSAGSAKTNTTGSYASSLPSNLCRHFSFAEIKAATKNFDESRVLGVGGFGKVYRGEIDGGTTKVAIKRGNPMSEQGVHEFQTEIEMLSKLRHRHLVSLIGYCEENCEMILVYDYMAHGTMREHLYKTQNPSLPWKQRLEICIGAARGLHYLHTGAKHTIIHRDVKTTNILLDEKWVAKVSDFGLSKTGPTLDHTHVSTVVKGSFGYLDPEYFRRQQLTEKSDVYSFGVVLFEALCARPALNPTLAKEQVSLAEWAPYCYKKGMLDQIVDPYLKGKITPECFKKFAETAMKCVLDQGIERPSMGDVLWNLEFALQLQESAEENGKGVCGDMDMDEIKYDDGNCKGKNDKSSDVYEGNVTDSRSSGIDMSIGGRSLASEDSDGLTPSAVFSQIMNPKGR
Sequence of UniProt P0DUB6 (whole entry, looked up): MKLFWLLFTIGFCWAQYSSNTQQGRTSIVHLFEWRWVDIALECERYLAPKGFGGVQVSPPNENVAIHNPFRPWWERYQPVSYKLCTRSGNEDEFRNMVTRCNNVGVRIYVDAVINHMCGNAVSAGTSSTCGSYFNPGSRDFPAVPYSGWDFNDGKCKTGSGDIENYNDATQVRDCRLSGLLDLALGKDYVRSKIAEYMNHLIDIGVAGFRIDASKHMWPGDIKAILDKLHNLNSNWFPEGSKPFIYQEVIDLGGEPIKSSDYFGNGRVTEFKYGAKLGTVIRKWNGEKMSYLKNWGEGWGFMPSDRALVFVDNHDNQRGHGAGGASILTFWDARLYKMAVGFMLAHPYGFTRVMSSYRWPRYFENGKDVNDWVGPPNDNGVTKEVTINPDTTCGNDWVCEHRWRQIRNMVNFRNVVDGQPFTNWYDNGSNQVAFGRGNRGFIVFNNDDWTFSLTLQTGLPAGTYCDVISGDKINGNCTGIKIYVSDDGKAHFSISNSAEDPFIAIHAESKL
Sequence of UniProt P49841 (whole entry, looked up): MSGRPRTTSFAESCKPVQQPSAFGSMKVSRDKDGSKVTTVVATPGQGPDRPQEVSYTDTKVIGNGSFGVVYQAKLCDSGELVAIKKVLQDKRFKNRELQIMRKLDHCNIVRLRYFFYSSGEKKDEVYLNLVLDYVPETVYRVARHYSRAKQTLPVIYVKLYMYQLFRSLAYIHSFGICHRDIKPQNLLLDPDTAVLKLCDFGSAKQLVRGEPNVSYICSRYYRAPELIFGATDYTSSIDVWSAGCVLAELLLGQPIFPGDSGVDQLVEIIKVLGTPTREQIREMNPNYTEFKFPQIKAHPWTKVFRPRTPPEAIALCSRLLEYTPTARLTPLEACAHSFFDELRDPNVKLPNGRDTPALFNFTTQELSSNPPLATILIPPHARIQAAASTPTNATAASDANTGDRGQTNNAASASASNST

| SMILES | target | test | system | conditions | IC50 [µM] |
| --- | --- | --- | --- | --- | --- |
| CN1CCN(c2ccc(Nc3ncc4cc(C#N)c(=O)n(C5CCCC5)c4n3)cc2)CC1 | TEC (Homo sapiens, UniProt P42680) |  |  |  | 5.63 |
| N#CC(=Cc1ccccc1Cl)C(=O)NCc1ccccc1 | UCHL1 | inhibitor, ubiquitin-rhodamine cleavage |  | 2 h preincubation | > 200 |
| CCCCCCCCCCCCNC(=S)NCCCC[C@H](NC(=O)OCc1ccccc1)C(=O)N[C@@H](Cc1c[nH]c2ccccc12)C(=O)N[C@@H](CCC(=O)O)C(N)=O | SIRT2 | enzyme activity, inhibitor |  |  | 9.6 ± 1.1 |
| COc1ccc(-c2cncc(N[C@@H](C)c3cccc(NC(=O)c4cncc(C)c4)c3)n2)cc1OC | PDGFRB (Homo sapiens, UniProt P09619) |  |  |  | 0.014 |
| CN(C)C(=O)c1cc2cnc(Nc3cncc(-c4ccc5c(=O)cc(N6CCOCC6)oc5c4)c3)nc2n1C1CCCC1 | Bromodomain-containing protein 4, BD1 (BRD4, Homo sapiens, UniProt O60885) | inhibitor |  |  | > 10 |
| O=C(O)[C@H]1O[C@@H](Oc2cc3oc(-c4ccccc4)cc(=O)c3c(O)c2O)[C@H](O)[C@@H](O)[C@@H]1O | serine/threonine phosphatase Stp1 | phosphatase activity, inhibitor |  |  | > 224 |
| CC1(C)CC[C@]2(C(=O)O)CC[C@]3(C)C(=CC[C@@H]4[C@@]5(C)CC[C@H](O[C@@H]6O[C@H](C(=O)O)[C@@H](O)[C@H](O[C@@H]7OC[C@@H](O)[C@H](O)[C@H]7O)[C@H]6O)C(C)(C)[C@@H]5CC[C@]43C)[C@@H]2C1 | serine/threonine phosphatase Stp1 | inhibitor |  |  | 26.1 |
| Cc1c(-c2ccccc2)oc2c(C(=O)OCCN3CCCCC3)cccc2c1=O | Anoctamin-1 (Ano1, Mus musculus, UniProt Q8BHY3) | chloride current | HEK293 transfected | at +80 mV | 32.8 |
| O=S(=O)(Nc1ccccc1)c1cccc2nsnc12 | Histone acetyltransferase RTT109 with Vps75 | enzyme activity, inhibitor, HTS, CPM-based, dose response |  |  | > 125 |
| Cc1cc(O)cc(Nc2nnc(-c3n[nH]c4ccc(C)cc34)s2)c1 | thymidine phosphorylase | enzyme activity, inhibitor, spectrophotometric |  | pH 7.5, 25 °C | 10.6 ± 1.79 |
| Cc1c(N2CCOCC2)oc2c(-c3ccc(Nc4ncc5cc(C(=O)N(C)C)n(C6CCCC6)c5n4)cc3F)cccc2c1=O | BRD4 BD2 | inhibitor |  |  | > 10 |
| CCOC(=O)C(=NNc1ccc(O)cc1)C(C)=O | Glycogen synthase kinase-3 beta, with Nav1.6 (GSK3B, Homo sapiens, UniProt P49841) | Nav1.6-GSK3β assembly, inhibitor, split-luciferase complementation | HEK293 cells (transfected) |  | 101 |
| CN(C)C(=O)c1cc2cnc(Nc3cncc(-c4cccc5c(=O)cc(N6CCOCC6)oc45)c3)nc2n1C1CCCC1 | BRD4 BD2 | inhibitor |  |  | > 10 |
| Oc1ccc(/C=C/c2cc(O)cc(O)c2)cc1 | Alpha-amylase 1A (AMY1A, Homo sapiens, UniProt P0DUB6) | enzyme activity, inhibitor, HPAEC-PAD |  | with: maltoheptaose substrate | > 100 |
| CC1(C)CC[C@]2(C(=O)O)CC[C@]3(C)C(=CC[C@@H]4[C@@]5(C)CC[C@H](O)C(C)(C)[C@@H]5CC[C@]43C)[C@@H]2C1 | ACE (Oryctolagus cuniculus, UniProt P12822) | enzyme activity |  |  | 18.4 ± 1.21 |
| Cc1cc(Nc2nnc(-c3n[nH]c4ccc(C)cc34)s2)cc([N+](=O)[O-])c1 | thymidine phosphorylase | enzyme activity, inhibitor, spectrophotometric |  | pH 7.5, 25 °C | 13.2 ± 1.52 |
| CC(=O)c1cnc2ccc(-c3cc(Cl)c(O)c(Cl)c3)nc2c1N[C@H]1CC[C@H](CN(C)C)CC1 | Receptor-like protein kinase FERONIA (FER, Arabidopsis thaliana, UniProt Q9SCZ4, D679A) | kinase activity, inhibitor, ADP-Glo |  |  | > 100 |
| O=C(Nc1cccnn1)N1CCC(=Cc2cccc(Oc3ccc(C(F)(F)F)cn3)c2)CC1 | Faah | enzyme activity, inhibitor | rat brain membranes | 45 min preincubation | 0.0027 |
| CN(C)C(=O)c1cc2cnc(Nc3ccc(-c4ccc5c(=O)cc(N6CCNCC6)oc5c4)cc3)nc2n1C1CCCC1 | BRD4 BD2 | inhibitor |  |  | > 10 |
| CN(C)c1ccc(Nc2nc(-c3ccncc3)nc3c2CC(N)CC3)cc1 (stereo not shown) | TOP2B (Homo sapiens, UniProt Q02880) | DNA relaxation, inhibitor |  |  | > 100 |
| O=C(NC1CS(=O)(=O)c2ccccc21)c1cc2ccccc2s1 (stereo not shown) | Histone acetyltransferase RTT109 with Vps75 | enzyme activity, inhibitor, HTS, CPM-based, dose response |  |  | > 125 |
| O=C(Nc1cnccc1Cl)N1CCN(Cc2ccc3c(c2)OC(F)(F)O3)CC1 | Faah | enzyme activity, inhibitor | rat brain membranes | 15 min preincubation | 0.273 |
| CC/C(=N\NC(=O)NCc1cccc(O)c1)c1ccc(O)c(C)c1O | LATS2 (Homo sapiens, UniProt Q9NRM7) | kinase activity, inhibitor |  |  | 0.00457 ± 0.00021 |
| CC[C@@H]1[C@H](F)C(=O)N[C@@H]1COc1nccc2cc(C(N)=O)c(OC)cc12 | PTK2B (Homo sapiens, UniProt Q14289) | ATP-site binding, ActivX kinase profiling | THP-1 cell lysate | PYK2 activation-loop probe peptide | > 5 |
| O=C1CC(SCc2ccccc2)C(=O)N1c1ccc(Br)cc1 (stereo not shown) | Histone acetyltransferase RTT109 with Vps75 | enzyme activity, inhibitor, HTS, CPM-based, dose response |  |  | > 125 |

| SMILES | target | test | system | conditions | IC50 [µM] |
| --- | --- | --- | --- | --- | --- |
| COc1cc2nccc(Oc3ccc(NC(=O)c4cc5c(n(-c6ccccc6)c4=O)CCCC5=O)nc3)c2cc1OC | PDGFRA (Homo sapiens, UniProt P16234) | cell viability, CellTiter-Glo | Ba/F3 expressing recombinant kinase | 48 h | 0.0289 |
| CC(=O)Nc1ccc(NC(=O)C(C#N)=Cc2cc(F)ccc2F)cc1 | UCHL1 | inhibitor, ubiquitin-rhodamine cleavage |  | 2 h preincubation | 37.7 |
| CCN(c1ccccc1)S(=O)(=O)c1ccc(Cl)c(C(=O)Nc2ccccc2N2C(=O)CC(C)(C)C2=O)c1 | N-myristoyltransferase (Cryptosporidium parvum, UniProt Q5CV46) | enzyme activity, inhibitor |  |  | > 125 |
| C[C@@H]1O[C@H](CNC(=O)c2cc3ccccc3[nH]2)[C@@H](O)[C@H](O)[C@@H]1O | fucose-binding lectin LecB (Pseudomonas aeruginosa, UniProt A0A0H2ZE85) |  |  |  | 3.57 ± 0.66 |
| O=S1(=O)CC(O)c2ccccc21 (stereo not shown) | Histone acetyltransferase RTT109 with Vps75 | enzyme activity, inhibitor, HTS, CPM-based, dose response |  |  | > 125 |
| Cc1nc(-c2ccc(C(F)(F)F)c(F)c2)nc(Nc2ccc(CC(=O)O)cc2)c1C | PDE4B (Homo sapiens, UniProt Q07343) | enzyme activity, inhibitor |  |  | 120 ± 34.1 |
| Cc1nc(Nc2ncc(C(=O)Nc3c(C)cccc3Cl)s2)cc(N2CC[C@H](O)C2)n1 | BTK (Homo sapiens, UniProt Q06187, C481S) | enzyme activity, inhibitor |  |  | 0.00072 |
| CCN(CC)CCCC(C)Nc1ccnc2cc(Cl)ccc12 (stereo not shown) | ULK2 (Homo sapiens, UniProt Q8IYT8) | enzyme activity, inhibitor |  | with: 10 µM ATP | > 10 |
| COc1ccc([C@H]2N(c3ccc(Cl)c(Cl)c3)C(=O)[C@@H]3CCCN32)c(OC)c1OC (racemic) | mutant huntingtin exon 1 and calmodulin | protein binding, inhibitor, AlphaScreen |  |  | 2.2 |
| CC#CC(=O)N[C@H]1CCCN(c2c(F)cc(C(N)=O)c3[nH]c(C)c(C)c23)C1 | LYN (Homo sapiens, UniProt P07948) |  |  |  | 2.55 |
| CN(C)C(=O)c1cc2cnc(Nc3ccc(-c4cccc5c(=O)cc(N6CCNCC6)oc45)cc3)nc2n1C1CCCC1 | BRD4 BD2 | inhibitor |  |  | 0.132 |
| CCCCCCCCCCCCNC(=S)NCCCC[C@H](NC(=O)OCc1ccccc1)C(=O)N[C@@H](C)C(=O)N[C@@H](CCCNC(=N)N)C(N)=O | SIRT2 | enzyme activity, inhibitor |  |  | 0.47 ± 0.05 |
| O=C(NO)c1ccc(Cn2cnc3c(Nc4ccc(Cl)cc4)ncnc32)cc1 | HDAC7 (Homo sapiens, UniProt Q8WUI4) | enzyme activity, inhibitor, continuous fluorogenic |  |  | 0.048 |
| N=C(N)N1CCc2ccccc2C1 | Serine protease 1 (PRSS1, Bos taurus, UniProt P00760) | enzyme activity, inhibitor |  |  | 220 ± 30 |
| CNC(=O)c1ccc(C2CCCN2c2cc(C3CCNCC3)ncn2)s1 (stereo not shown) | Catenin beta-1, with BCL9 HD2 (CTNNB1, Homo sapiens, UniProt P35222) | BCL9 binding, inhibitor, AlphaScreen |  |  | 6.59 |
| CCCCSC1CC(=O)N(c2ccc(Br)cc2)C1=O (stereo not shown) | Histone acetyltransferase RTT109 with Vps75 | enzyme activity, inhibitor, HTS, CPM-based, dose response |  |  | > 125 |
| O=c1nc(SCc2cc(F)cc(C(F)(F)F)c2)nc(SCc2ccc3nc(Cl)ccc3c2)[nH]1 | TOP2A (Homo sapiens, UniProt P11388) | ATPase activity, ATP-competitive inhibitor |  | with: ATP 0.75 mM | 28 |
| Fc1ccc(Nc2nc(-c3ccccc3)no2)cc1 | Histone acetyltransferase RTT109 with Vps75 | enzyme activity, inhibitor, HTS, CPM-based, dose response |  |  | > 125 |
| CC(=O)c1cc([N+](=O)[O-])c(Sc2ccc(F)cc2F)s1 | USP10 (Homo sapiens, UniProt Q14694) | deubiquitinase activity, inhibitor, MALDI-TOF DUB |  | 30 °C, 35 min pre-incubation | 5.97 |
| N#CC(=Cc1cccc(Cl)c1Cl)C(=O)NCCc1ccccc1 | UCHL1 | inhibitor, ubiquitin-rhodamine cleavage |  | 2 h preincubation | > 200 |
| O=C1CC(Nc2ccc(Cc3nc4ccccc4[nH]3)cc2)C(=O)N1c1ccc(Br)cc1 (stereo not shown) | Histone acetyltransferase RTT109 with Vps75 | enzyme activity, inhibitor, HTS, CPM-based, dose response |  |  | > 125 |
| Cc1cc([C@@H](C)Nc2ccccc2C(=O)O)c2nc(N3CCC(F)(F)CC3)c(C#N)c(=O)n2c1 | Phosphatidylinositol 4,5-bisphosphate 3-kinase catalytic subunit alpha isoform, with p85 alpha (PIK3CA, Homo sapiens, UniProt P42336, E542K) | ADP-Glo |  | with: ATP 10 µM | 1.45 |
| O=C(Nc1ccccc1)N1CCN(c2nc(-c3ccccc3)ns2)CC1 | Histone acetyltransferase RTT109 with Vps75 | enzyme activity, inhibitor, HTS, CPM-based, dose response |  |  | > 125 |
| Cc1cnc(-c2ccc(-c3ccc(NC(=O)Nc4c(F)cc(F)cc4F)cc3F)c3c2C(=O)NC3)[nH]1 | BTK (Homo sapiens, UniProt Q06187) | enzyme activity, inhibitor, mobility shift |  | with: ATP 1 mM | 0.0093 |
